Published values of several laboratories.
A part holds a random share of what one study measured.

Block 1 — technique: RNA Bind-n-Seq; molecule type: RNA; matrix: in vitro; concentration: not given; relative to: input RNA pool; direction: higher = stronger binding
Target: RING finger protein unkempt homolog, zinc fingers 1-6, GST-SBP tag (UNK, Homo sapiens, UniProt Q9C0B0, residues 30-357)
Sequence of UniProt Q9C0B0 (30-357, looked up): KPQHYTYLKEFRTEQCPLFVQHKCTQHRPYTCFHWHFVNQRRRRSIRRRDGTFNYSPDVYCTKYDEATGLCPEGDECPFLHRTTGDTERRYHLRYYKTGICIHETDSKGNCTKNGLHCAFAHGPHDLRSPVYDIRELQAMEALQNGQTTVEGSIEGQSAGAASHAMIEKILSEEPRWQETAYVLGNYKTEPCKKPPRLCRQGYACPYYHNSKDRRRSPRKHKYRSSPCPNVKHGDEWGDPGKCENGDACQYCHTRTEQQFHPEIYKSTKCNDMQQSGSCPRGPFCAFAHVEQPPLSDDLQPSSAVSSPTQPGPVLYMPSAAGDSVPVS
Notes: RNA with constant flanks, human and mouse sites, ends assumed
Constant ends, left off below: GGGAGUUCUACAGUCCGACGAUC … CAACAGAGGAUUGAGCAUCA
Sequence | bound/input enrichment
GGCCAGCUCAAUGCUGACCUCCGCAAGUUGGCAGUCAACAUGGUCCCCUUCCCACGUCUCCAUUUCUUUAUGCCUGGCUUUGCCCCUCUCACCAGCCGUGGAAGCCAGCAGUAUCGAGCU | 0.324 ratio
AGUGAAGAGGCUGGUGUAAUCGAAACAAUUAAGAACAAAAUUAAGAAGAACGUUGAUGCCCGGAAAUCCACCCCCUCCAUGGUCGAUCGACUUCAGAGGCAGAUCAUCAUCGCUGACUGC | 0.297 ratio
ACUCUUGACUCUUUCCAUUCUCGUCCCUUUCCUCUUGAUCUUCAAGGCCAUGAAUCCCAAAAUAGCUAUCUAUCUUAGAGGCUAGCACCCAAACUGAGGUGCCAUCCAAACUGACAAGGC | 0.923 ratio
AGAUUUUGUGCUUGAUUUUUAAGAAUGGAAUCAUGGGAAUUUUUUUCUUUUUUUUUUUUUAAUGUAUCUUGACUGUUGUCUGUCUUGUUCCUGACCUGGCACGCUGACAGUACCUUGUCC | 0.421 ratio
GGAGCCAUUGAUGCUGUUCCUGUUGAUGAAAAUCUUUUCACUGGAGAGGAUUUGGAUGAACUAGAAGAAGAAUUAAAUACACUUGAUUUAGAAGAAUGACACCAAACACAUCGCUGAAAA | 1.71 ratio
AGUAUUUUUUGGCUAAUGGCUUGAGUCACGUGGAAAUGUGAAUGUUGUAUUGUUGAACACAUUUGGUUUUGUUGUUAUAAAACAAGUCAAAUUUGCCUUCUAAAAGUGAUUAGUUUUAAA | 0.688 ratio
UGGGCAUCCUCUCUGGGGAGCUGCUGGCCGCUUAGCGUUGUUUGAUUUUUGACCUUGACAUAGUAGAUAGGCUUGUGGUUUUUUUAAUUUAAAGAUAUUAAGACUUAAUUCACUAAAAUU | 16.1 ratio
AGAUGGAAAGUGUUAAGAAAGAUUGGAGGUGGGGGCUUUGGAGAAAUUUACGAUGCCUUGGACAUGCUCACCAGGGAGAAUGUGGCGCUGAAGGUGGAGUCAGCUCAGCAGCCAAAGCAG | 0.359 ratio
UUAAUAUUGCUUCUCCUGCAUGGCAAAACUGCCUAUUCUGCUAUUUAAAAACCCUCAAUGACUUUAUUUUCUACUGCCGCCUUUUUCAUGUGCAACCAAAAUGAAAAUGUUUAAAUUAAC | 0.592 ratio
AGUAAAGUUGACAAUAAAACCAGAGUUUCUAUCUAUCUGAUUUUUUUUUUUUUUUAAUUGUAGUUGCACUUGUAGAUCAGAUUAUCAGAGGCAGGAGCACUCCCGGAUUGGAGCAUACUU | 2.19 ratio
GCGGUCAUUUUUGGGCCCGAAGGGACCCCGUUUGAGGAUGGAACAUUUAAGCUUACAAUUGAAUUCACUGAAGAGUAUCCUAAUAAGCCACCUACUGUUAGAUUUGUCUCUAAGAUGUUC | 0.23 ratio

Block 2 — technique: aptamer microarray, sandwich; molecule type: DNA with 2'F-ANA; matrix: in vitro; concentration: 200 nM; added: Cy3 exosite-II aptamer, 400 nM; direction: higher = stronger binding; sequence: GGTTGGTGTGGTTGG
Target: Prothrombin, mature alpha-thrombin (F2, Homo sapiens, UniProt P00734)
Notes: whole 15-mer aptamer, many near background
Modification | mean fluorescence intensity
2'F-ANA at 1 2 4 7 9 10 14 15 | 52 a.u.
2'F-ANA at 2 3 5 7 10 12 13 15 | 58.4 a.u.
2'F-ANA at 1 2 3 5 6 7 8 12 14 15 | 61 a.u.
2'F-ANA at 4 6 8 9 10 14 | 57.7 a.u.
2'F-ANA at 5 6 7 8 11 12 14 15 | 48.3 a.u.
2'F-ANA at 1 6 9 11 12 13 14 | 62.5 a.u.
2'F-ANA at 1 2 4 7 8 | 157 a.u.
2'F-ANA at 2 3 4 6 7 8 9 13 14 15 | 206 a.u.
2'F-ANA at 2 4 5 6 7 8 13 14 | 71.4 a.u.
2'F-ANA at 2 8 9 10 12 | 191 a.u.
2'F-ANA at 1 3 4 6 8 9 10 12 14 | 91.5 a.u.
2'F-ANA at 2 3 4 5 6 15 | 81.5 a.u.
2'F-ANA at 1 3 5 7 9 12 13 14 | 48.7 a.u.
2'F-ANA at 4 9 11 15 | 249 a.u.
2'F-ANA at 1 4 5 6 7 11 13 14 | 45.5 a.u.
2'F-ANA at 2 7 9 10 12 | 164 a.u.
2'F-ANA at 1 4 5 6 7 11 13 15 | 55.7 a.u.
2'F-ANA at 2 3 4 6 7 9 13 14 15 | 179 a.u.
2'F-ANA at 4 6 7 10 11 12 | 103 a.u.
2'F-ANA at 4 6 9 10 14 | 58.8 a.u.
2'F-ANA at 1 2 3 6 8 10 11 14 | 53.9 a.u.
2'F-ANA at 1 2 4 5 6 7 10 11 12 13 14 15 | 75.8 a.u.
2'F-ANA at 1 2 4 6 7 9 10 14 | 48.1 a.u.
2'F-ANA at 1 3 6 14 15 | 116 a.u.
2'F-ANA at 1 3 4 5 14 15 | 47.3 a.u.

Block 3 — technique: RNAcompete; molecule type: RNA; matrix: in vitro; concentration: 20 nM; notes: 7-mer, probes averaged, single round; relative to: mean of 7-mers; direction: higher = stronger binding
Target: PABPC1L2, full length, GST fusion (mouse, UniProt A0ABA7IW68)
Target sequence (chain): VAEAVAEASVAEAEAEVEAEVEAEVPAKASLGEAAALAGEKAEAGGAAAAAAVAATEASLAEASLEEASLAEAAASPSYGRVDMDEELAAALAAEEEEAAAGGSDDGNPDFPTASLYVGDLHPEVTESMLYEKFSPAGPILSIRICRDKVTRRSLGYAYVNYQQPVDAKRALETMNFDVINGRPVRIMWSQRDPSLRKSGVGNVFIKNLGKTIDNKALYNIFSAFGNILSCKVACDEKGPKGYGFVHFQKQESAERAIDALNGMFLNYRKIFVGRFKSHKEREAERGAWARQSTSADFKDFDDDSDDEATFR
Sequence | 7-mer Z-score
GGUGCUU | 0.0134
UCUACAG | -0.197
UAGCUCU | -0.206
UUUUAUC | -0.244
UACUACA | -0.126
ACCAAAU | 0.412
CGUGGUU | -0.18
GCGCACG | -0.115
GAUUGUU | -0.411
UGGUGGG | -0.106
GGAAGCG | 0.144
AUCAGUA | -0.0518
CAGGAGU | 0.131
AAUCGGG | 0.474
CUCCCUA | -0.293
UCGAGAU | -0.26
UCGGUCU | -0.311
AAUGCCU | -0.0718
AAAGUCA | 1.27
AGCGAGG | 0.336
ACAGUCU | -0.168
GCUGAAU | -0.0409
CGGCAUC | -0.126
UUGACCC | -0.237
UGGGCAU | 0.263

Block 4 — technique: protein binding microarray; molecule type: double-stranded DNA, one strand shown; matrix: in vitro; concentration: not given; relative to: not given; direction: higher = stronger binding
Target: Histone acetyltransferase KAT6A, both winged helices, GST fusion (KAT6A, Homo sapiens, UniProt Q92794, residues 1-181)
Notes: 8-mer, flanks averaged, mean of 2 arrays, mostly near background
Construct (chain): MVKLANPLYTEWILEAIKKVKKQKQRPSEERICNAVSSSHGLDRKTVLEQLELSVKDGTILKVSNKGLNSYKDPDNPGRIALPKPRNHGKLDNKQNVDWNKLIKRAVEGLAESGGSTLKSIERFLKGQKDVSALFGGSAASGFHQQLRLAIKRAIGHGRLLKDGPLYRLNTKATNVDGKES
Sequence | E-score
GCCCCGTA | 0.131
TCTTACAA | -0.121
AATCGAAG | -0.0115
ATCTCGTG | -0.0709
GGTATAAA | 0.0242
GACGGGGA | 0.212
ACGCTTCA | 0.135
AAGCCTGG | -0.177
CCTTTGGC | -0.169
ACATATAA | -0.105
AAAGTAAA | -0.145
CTTTACTA | -0.0398
CACCTGGA | -0.301
GTCCAAAC | -0.16
CTGGCTCA | -0.118
CCCTCCTC | -0.243

Block 5 — technique: protein-binding microarray; molecule type: double-stranded DNA, one strand shown; matrix: in vitro; concentration: 0.8 µM; notes: whole 60-bp probe, no competitor; direction: higher = stronger binding; constant ends, left off below: … GTCTTGATTCGCTTGACGCTGCTG
Target: Centromere-binding protein 1, full length, N-terminal tag (CBF1, Saccharomyces cerevisiae, UniProt P17106, residues 1-351)
Sequence of UniProt P17106 (whole entry, looked up): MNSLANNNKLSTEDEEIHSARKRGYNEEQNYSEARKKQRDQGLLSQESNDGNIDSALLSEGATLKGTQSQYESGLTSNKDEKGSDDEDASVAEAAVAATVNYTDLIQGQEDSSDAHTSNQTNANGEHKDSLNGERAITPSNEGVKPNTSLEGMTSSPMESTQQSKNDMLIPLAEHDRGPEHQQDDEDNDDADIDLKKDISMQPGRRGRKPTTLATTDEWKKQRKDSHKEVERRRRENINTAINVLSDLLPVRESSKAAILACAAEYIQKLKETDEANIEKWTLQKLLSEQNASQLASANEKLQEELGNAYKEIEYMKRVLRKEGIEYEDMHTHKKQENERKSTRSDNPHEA
Sequence | fluorescence intensity [a.u.]
CTACTTTCGCATCGTCACCGATTTAAAGCTCTCTTC | 555
GAATAACATTCTTGTGGTCACGTGATGTGTATGTAG | 40600
CTATCTCCTAAACGGCATGTGATTGAACACGGTTTC | 1530
GAACTACAGCATGCAATCGTGGTCAGAATTCTATAG | 529
GAATTCTTTTTTTGCCACGGGGCGGGTACTAGATAG | 713
GAAGAAGAGATACCTCACGTCTGTAATATCTAATAG | 483
CCTAACTACTATATGCATGTTGGATAGCTTCGTACA | 531
GAAATTCATGTGTGTCACGAAAAGTGATGTAACTAG | 612
CTATTGCTGTTGAGTGGTCTCATGACAATAAAGTTC | 1160
CTACCCACATACAATCACCTGTAGAAAGAAACATTC | 636
CTACCTATTAATTGTCAGACCACCGAATGCTATTTC | 629
CTAGATATACCACACCACGTGAGCTTATAGAAGTTC | 6990
CTAATTTGTCACAGTCACGTGATTACATTTAAGTTC | 39800
GAACACTATCCTGTACATGTGAAATGTATAAAATAG | 841
GAACTAAACGAAAATCCCGTGAAAAAAATTTATTAG | 687
CTAATTTTTTCAAATCATATGAAACAAGTATTATTC | 601

Repeated from above (block 3):
Sequence | 7-mer Z-score
UCGGUCU | -0.311
CGGCAUC | -0.126
GAUUGUU | -0.411
AGCGAGG | 0.336
UUUUAUC | -0.244
UGGGCAU | 0.263
AAUGCCU | -0.0718
CAGGAGU | 0.131
UUGACCC | -0.237
AAAGUCA | 1.27
UACUACA | -0.126
